Assay results from different studies.

SMILES | species | medium | route | dose | notes | AUC
CN[C@H](CC(C)C)C(=O)N[C@H]1C(=O)N[C@@H](CC(N)=O)C(=O)N[C@H]2C(=N)N[C@H]3C(=O)N[C@H](C(=O)N[C@H](C(=O)NCCC[N+](C)(C)C)c4cc(O)cc(O)c4-c4cc3ccc4O)[C@H](O)c3ccc(c(Cl)c3)Oc3cc2cc(c3O[C@@H]2O[C@H](CO)[C@@H](O)[C@H](O)[C@H]2O[C@H]2C[C@](C)(NCc3ccc(-c4ccc(Cl)cc4)cc3)[C@H](O)[C@H](C)O2)Oc2ccc(cc2Cl)[C@H]1O | mouse | – | intravenous | 10 mg/kg | – | 116 µM·h
COC1C=COC2(C)Oc3c(C)c(O)c4c(c3C2=O)C2=NC3(CCN(CC(C)C)CC3)NC2=C(NC(=O)C(C)=CC=CC(C)C(O)C(C)C(O)C(C)C(OC(=O)c2cccnc2)C1C)C4=O (centres unmarked) | CD-1 mouse | plasma | oral | dose not given | efficacy dose | 133000 ng·h/mL
CC(C)(O)Cn1nc(-c2ccccc2)c2c(Cl)c(-c3ccccc3)nnc21 | mouse juvenile P20 | plasma | intraperitoneal | 40 mg/kg | – | 7.92 µM·h
O=S(=O)(N[C@H]1CCC[C@@H](N2c3ccccc3CCc3ccccc32)[C@@H]1O)c1ccc(OC(F)(F)F)cc1 | mouse | plasma | oral | 100 mg/kg | solution | 11700 ng·h/mL
OCCn1nc(-c2ccccc2)c2c(Cl)c(-c3ccccc3)nnc21 | mouse juvenile P20 | plasma | intraperitoneal | 30 mg/kg | – | 1.71 µM·h
COc1cc2ncnc(Oc3ccc(Nc4nccc5[nH]cc(-c6ccc(F)cc6)c(=O)c45)cc3F)c2cc1OC | mouse, athymic nude, U-87 MG xenograft | – | oral | 8.3 mg/kg | ED50 dose | 271000 ng·h/mL
COc1ccccc1NC(=O)OC1C(C)C(OC)C=COC2(C)Oc3c(C)c(O)c4c(c3C2=O)C2=NC3(CCN(CC(C)C)CC3)NC2=C(NC(=O)C(C)=CC=CC(C)C(O)C(C)C(O)C1C)C4=O (centres unmarked) | CD-1 mouse | plasma | oral | 12.5 mg/kg | efficacy dose | 41800 ng·h/mL
CN[C@H](CC(C)C)C(=O)N[C@H]1C(=O)N[C@@H](CC(N)=O)C(=O)N[C@H]2CN[C@H]3C(=O)N[C@H](C(=O)N[C@H](C(=O)NCCCNC(=N)N)c4cc(O)cc(O)c4-c4cc3ccc4O)[C@H](O)c3ccc(c(Cl)c3)Oc3cc2cc(c3O[C@@H]2O[C@H](CO)[C@@H](O)[C@H](O)[C@H]2O[C@H]2C[C@](C)(NCc3ccc(-c4ccc(Cl)cc4)cc3)[C@H](O)[C@H](C)O2)Oc2ccc(cc2Cl)[C@H]1O | mouse | – | intravenous | 50 mg/kg | – | 987 µM·h
O=c1c(-c2cnn(-c3ccc(Cl)cc3)c2)c(C(F)(F)F)oc2c(O)c(O)ccc12 | mouse | – | intraperitoneal | 100 mg/kg | DMSO vehicle | 19.2 µM·h
COC1C=COC2(C)Oc3c(C)c(O)c4c(c3C2=O)C2=NC3(CCN(CC(C)C)CC3)NC2=C(NC(=O)C(C)=CC=CC(C)C(O)C(C)C(O)C(C)C(OC(=O)Nc2cscn2)C1C)C4=O (centres unmarked) | CD-1 mouse | plasma | oral | dose not given | efficacy dose | 40000 ng·h/mL
COc1cccc2c1C(=O)c1c(O)c3c(c(O)c1C2=O)C[C@@](O)(C(=O)CO)C[C@@H]3O[C@H]1C[C@H](N)[C@H](O)[C@H](C)O1 | NMRI mouse | plasma | intravenous | 10 mg/kg | – | 5050 ng·h/mL

Repeated from above:
SMILES | species | medium | route | dose | notes | AUC
O=S(=O)(N[C@H]1CCC[C@@H](N2c3ccccc3CCc3ccccc32)[C@@H]1O)c1ccc(OC(F)(F)F)cc1 | mouse | plasma | oral | 100 mg/kg | solution | 11700 ng·h/mL
